# Measured values of several laboratories.
# A part holds a random share of what one study measured.

# Study 1
# Target: Phosphate system positive regulatory protein PHO4, full length, GST-tagged (PHO4, Saccharomyces cerevisiae, UniProt P07270, residues 1-312)
# Method: competition protein-binding microarray
# Molecule type: double-stranded DNA, one strand shown
# Matrix: in vitro
# Concentration: 2 µM
# Setting: whole 60-bp probe, lowest competitor level
# Together with: Cbf1 competitor, 0.05 µM
# Reading: higher = stronger binding
# Construct (chain): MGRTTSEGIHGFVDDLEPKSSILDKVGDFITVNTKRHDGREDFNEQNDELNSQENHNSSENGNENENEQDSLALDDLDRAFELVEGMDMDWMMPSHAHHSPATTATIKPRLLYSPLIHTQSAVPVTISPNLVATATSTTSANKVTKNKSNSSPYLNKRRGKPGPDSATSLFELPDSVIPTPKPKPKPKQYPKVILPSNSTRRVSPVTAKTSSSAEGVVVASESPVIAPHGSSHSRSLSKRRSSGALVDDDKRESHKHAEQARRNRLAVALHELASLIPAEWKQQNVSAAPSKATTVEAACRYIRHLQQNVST
Sequence,fluorescence intensity [a.u.]
GGTTGTGGAGCATTCAGCGTGATGGCAAAAGGTGTTGTCTTGATTCGCTTGACGCTGCTG,6370
AGTGTCTGGGATGCGCTCGTGACGGTCGGCAGAGCAGTCTTGATTCGCTTGACGCTGCTG,7930
CTAACGAAGGTTTGTTCGGTGGGTGACAAGCCAAGTGTCTTGATTCGCTTGACGCTGCTG,3360
GTTCGCATCGTCCGTCACAGCAGCACCAAACACAGGGTCTTGATTCGCTTGACGCTGCTG,5410

# Study 2
# Target: Interferon regulatory factor 5, full length, phosphomimetic (IRF5, Homo sapiens, UniProt Q13568-2, residues 1-514, K96S/S451D/S453D/S456D/S462D)
# Method: protein-binding microarray
# Molecule type: double-stranded DNA, one strand shown
# Matrix: in vitro
# Concentration: 250 nM
# Setting: 60-bp whole probe
# Together with: salmon DNA 0.4 mg/ml
# Reference: random background probes
# Reading: higher = stronger binding
Sequence,log fluorescence [z-score]
GCCTAGCACACAGGACAGTCCCATCTACCGTGCTAGGTCTTGATTCGCTTGACGCTGCTG,-0.331
GCCTAGCACTTCCTTTCTCTTCCGTTAGCGTGCTAGGTCTTGATTCGCTTGACGCTGCTG,3.28
GCCTAGCACTTAGGTTTGGGTCTCGGTTAGTGCTAGGTCTTGATTCGCTTGACGCTGCTG,0.268
GCCTAGCACTCAACCATCCCTTATAAAACTGTGCTAGTCTTGATTCGCTTGACGCTGCTG,0.45

# Study 3
# Target: RING finger protein unkempt homolog, zinc fingers 1-6, GST-SBP tag (UNK, Homo sapiens, UniProt Q9C0B0, residues 30-357)
# Sequence of UniProt Q9C0B0 (30-357, looked up): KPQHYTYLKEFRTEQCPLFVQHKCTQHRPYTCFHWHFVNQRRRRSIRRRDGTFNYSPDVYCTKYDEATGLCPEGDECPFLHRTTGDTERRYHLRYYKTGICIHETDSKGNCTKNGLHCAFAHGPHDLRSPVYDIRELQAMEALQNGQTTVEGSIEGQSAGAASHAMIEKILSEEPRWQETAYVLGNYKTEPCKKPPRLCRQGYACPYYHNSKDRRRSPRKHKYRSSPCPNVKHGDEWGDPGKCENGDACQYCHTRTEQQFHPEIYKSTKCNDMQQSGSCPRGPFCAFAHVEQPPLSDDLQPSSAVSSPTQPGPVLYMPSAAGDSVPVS
# Method: RNA Bind-n-Seq
# Molecule type: RNA
# Matrix: in vitro
# Concentration: not given
# Setting: RNA with constant flanks, human and mouse sites, ends assumed
# Reference: input RNA pool
# Reading: higher = stronger binding
Sequence,bound/input enrichment [ratio]
GGGAGUUCUACAGUCCGACGAUCCCAAUGGAACCACAAGGGACUUUAGAUAUCACUCAGCAAGAUACUGCCAAAGGUGAUCAACUAGAAAGAAUUUCUAAUGGACCUGUAUUAACUUUGGGUGGUUCAUCUGUGAGCAGUAUACAACAGAGGAUUGAGCAUCA,0.245
GGGAGUUCUACAGUCCGACGAUCCUUUUAAAACAAGUGCUUCAGAUCCAGAAAUUUGUUAACAUGAAAACUCAAGGAUGUUUUCCUCAGUUGUUUCCUGUAAGUGCUGUGACCUUUUCUGGAAUCCACCUGUUGAGAUGCUUUCAACAGAGGAUUGAGCAUCA,0.287
GGGAGUUCUACAGUCCGACGAUCUGUUUAAUAAAUUACAUCCAACUUGUUCCUUCCUUCUUAAAUCAUAUUUAUAUAUGCAUCUCUUUCAAAAGCUUCAGCGCCUGCUCCUGGUCAUCACUAACCAGAUUUACUUGGAGUACACAACAGAGGAUUGAGCAUCA,0.449

# Mixed results
Substance,target,test,test system,setting,how to read,quantity,result
"PhoQ, residues 284 288 289 292 302 303 ASASEQ","PhoP, residues 12 14 15 18 19 FWNTL (Escherichia coli, UniProt P23836)","Sort-seq, refers to: YFP reporter",E. coli,"PhoQ-PhoP variant library, together with: 10 µM Mg2+","reference: high Mg2+ state, higher = stronger signaling",fold induction,0.922
